Measured values of several laboratories.
Compare with care: the assays were run in different laboratories. Numbers after ± are the reported error.
B1: enzyme (Mus musculus, UniProt P60334); chain MERTELLKPRTLADLIRILHELFAGDEVNVEEVQAVLEAYESNPAEWALYAKFDQYRYTRNLVDQGNGKFNLMILCWGEGHGSSIHDHTDSHCFLKLLQGNLKETLFDWPDKKSNEMIKKSERTLRENQCAYINDSIGLHRVENVSHTEPAVSLHLYSPPFDTCHAFDQRTGHKNKVTMTFHSKFGIRTPFTTSGSLENN
B2: enzyme S252E (Schizosaccharomyces pombe, UniProt P78804); chain MSTPYEPEFQQAYKEIVGSIESSKLFEVHPELKRVLPIISIPERVLEFRVTWEDDKGNCRVNTGYRVQFNSALGPYKGGLRFHPSVNLSILKFLGFEQIFKNALTGLPMGGGKGGSDFDPKGKSDNEIRRFSQAFMRQLFRYIGPQTDVPAGDIGVTGFVVMHMFGEYKRLRNEYSGVVTGKHMLTGGSNIRPEATGYGVVYYVKHMIEHRTKGAETLKGKRVAISGSGNVAQYAALKCIQEGAIVKSISDEKGVLIAKTAEGLVPEEIHEIMALKEKRASIADSASLCKKHHYIAGARPWTNVGEIDIALPCATQNEVSGEEAAALIKQGCRYVAEGSNMGSSAEAVEVFEKSRASGEGCWLAPGKAANAGGVAVSGLEMAQNAQFSTWTHAEVDAKLAGIMQNIFEQSTDVASKYCDSGSNNIPSLVDGANIAGFLKVATAMQAVGDWW
B3: aspC A106G/A218G/F210I/I29V/I33V/I68L/I71L/N30D/N64T/S135A/T100S/V136I/V375I (Escherichia coli, UniProt P00509); chain MFENITAAPADPILGLADLFRADERPGKVDLGVGVYKDETGKTPVLTSVKKAEQYLLENETTKTYLGLDGLPEFGRCTQELLFGKGSALINDKRARTAQSPGGTGGLRVAADFLAKNTSVKRVWVSNPSWPNHKAIFNSAGLEVREYAYYDAENHTLDFDALINSLNEAQAGDVVLFHGCCHNPTGIDPTLEQWQTLAQLSVEKGWLPLIDFAYQGFGRGLEEDAEGLRAFAAMHKELIVASSYSKNFGLYNERVGACTLVAADSETVDRAFSQMKAAIRANYSNPPAHGASVVATILSNDALRAIWEQELTDMRQRIQRMRQLFVNTLQEKGANRDFSFIIKQNGMFSFSGLTKEQVLRLREEFGVYAVASGRINVAGMTPDNMAPLCEAIVAVL
B4: CYP4F3 A27G/C46R/I34V/M14V/R49Q/W12G (Homo sapiens, UniProt Q08477); chain MALLLAVFLLGPVAASPWLLLLLVGGSWLLARVLAWTYTFYDNCRRLQCFPQPPKRNWFLGHLGLVTPTEQGMRVLTQLVATYPQGFKVWMGPIFPVIRFCHPNIIRSVINASAAIVPKDKVFYSFLKPWLGDGLLLSAGEKWSRHRRMLTPAFHFNILKPYMKIFNESVNIMHAKWQLLASEGSARLDMFEHISLMTLDSLQKCVFSFDSHCQEKPSEYIAAILELSALVTKRHQQILLYIDFLYYLTPDGQRFRRACRLVHDFTDAVIQERRRTLPSQGVDDFLQAKAKSKTLDFIDVLLLSKDEDGKKLSDEDIRAEADTFMFEGHDTTASGLSWVLYHLAKHPEYQERCRQEVQELLKDREPKEIEWDDLAQLPFLTMCIKESLRLHPPVPAVSRCCTQDIVLPDGRVIPKGIICLISVFGTHHNPAVWPDPEVYDPFRFDPKNIKERSPLAFIPFSAGPRNCIGQAFAMAEMKVVLGLTLLRFRVLPDHTEPRRKPELVLRAEGGLWLRVEPLS
B5: enzyme K234A (Methanosarcina mazei, UniProt Q8PVB1); chain MSEQRSVPLREHLLALKPCRHGGLIQETSETYGIPENEILDFSANFNPLGSPFDYPENGLNFEDIIKKSCGKLLEYPDNRYVEFREAAARFVGLGVTPQSIVPGNGSTEIVRLVVESVIEKGDKVLLPWPTFGEYEMQCRITGAEPVCPSQEEVNTLPDEVLEEAKILFICNPNNPTGKLRTREELKVLAERCREHKTLLYVDEAFIELSDPSQSVADLPAENNYVFVMRSLTADFAIPGIRMGFGIAPPAMADILNTARLSWNLGAIANNTGIALLNIEGGIDSPYLKKAREMILKEGETLKAKIDRIRGFEAGEVNVNFILVDVSKFMLNSSELTARLAARGVLVRDCVSFHGLGKNYIRVAVRTEKENDRLIAAIGDVITEWGREQAKNELQHVIEKASEEGIGGRKTCEYYPCHFEGQNCTFCFCPFYPCENEKTGGKWIQSSRGGRVWSCVDCHLVHKKEIAQKILDCLMHEGDTDELVKVAWKEVMEPIL
B6: SCO6712 S292F/Y229F (Streptomyces coelicolor, UniProt Q9XAL8); chain AKGITARTAPAGGEVRHLKMYAEKLADGQMGYGFEKGKASVPGPLIEVNEGDTLHIEFTNTMDVRASLHVHGLDYEISSDGTAMNKSDVEPGGTRTYTWRTHKPGRRDDGTWRPGSAGYWHYHDHVVGTEHGTGGIRNGLYGPVIVRRKGDVLPDATHTIVFNDMTINNRKPHTGPDFEATVGDRVEIVMITHGEFYHTFHMHGHRWADNRTGILTGPDDPSRVIDNKITGPADSFGFQIIAGEGVGAGAWMYHCHVQFHSDMGMVGLFLVKKPDGTIPGYEPHEHGGATAKSGESGEPTGGAAAHEHEH
B7: enzyme (Salmonella enterica, UniProt P0A2K1); chain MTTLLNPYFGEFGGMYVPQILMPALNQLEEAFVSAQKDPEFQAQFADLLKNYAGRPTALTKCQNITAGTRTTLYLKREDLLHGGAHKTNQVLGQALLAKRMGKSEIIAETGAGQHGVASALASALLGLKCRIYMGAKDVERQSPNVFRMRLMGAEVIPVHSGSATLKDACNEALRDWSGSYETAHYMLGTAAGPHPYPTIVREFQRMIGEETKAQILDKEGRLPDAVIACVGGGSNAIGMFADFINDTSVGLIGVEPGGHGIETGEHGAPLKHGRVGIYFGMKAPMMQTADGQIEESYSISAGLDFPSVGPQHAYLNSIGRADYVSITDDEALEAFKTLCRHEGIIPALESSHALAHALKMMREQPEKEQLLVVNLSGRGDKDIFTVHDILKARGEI

Molecule | target or system | assay | system | conditions | endpoint | value
enzyme (UniProt I4BTU9) | N[C@@H](CO)C(=O)O | steady-state kinetics |  | pH 8, 30 °C | kcat/Km | 15.6 ± 0.8 M⁻¹ s⁻¹
B1 (enzyme) | N[C@@H](CS)C(=O)O | steady-state kinetics |  | pH 7.5, 37 °C | kcat/Km | 180 M⁻¹ s⁻¹
B2 (enzyme S252E) | NC(=O)C1=CN([C@@H]2O[C@H](COP(=O)(O)OP(=O)(O)OC[C@H]3O[C@@H](n4cnc5c(N)ncnc54)[C@H](OP(=O)(O)O)[C@@H]3O)[C@@H](O)[C@H]2O)C=CC1 | steady-state kinetics |  | pH 7, 30 °C, apparent | kcat/Km | 160000 ± 20000 M⁻¹ s⁻¹
enzyme (UniProt A0A6P1VWL4) | C[C@@H]1O[C@@H](Oc2ccc([N+](=O)[O-])cc2Cl)[C@@H](O)[C@H](O)[C@@H]1O | steady-state kinetics |  | pH 6.4, 37 °C | kcat/Km | 38500 M⁻¹ s⁻¹
enzyme (UniProt A0A097IUD8) | Nc1ncnc2c1ncn2[C@@H]1O[C@H](COP(=O)(O)OP(=O)(O)O)[C@@H](O)[C@H]1O | steady-state kinetics |  | pH 6, 25 °C, with: 16 mM PEP | kcat/Km | 340000 M⁻¹ s⁻¹
B3 | N[C@@H](Cc1ccccc1)C(=O)O | steady-state kinetics |  | pH 7.5, 25 °C, with: PLP 20 µM | kcat/Km | 13000 M⁻¹ s⁻¹
HNL C81L/E79H/G176S/H103V/K236M/N104A/T11G (Hevea brasiliensis) | CC(=O)Oc1ccc([N+](=O)[O-])cc1 | steady-state kinetics |  | pH 7.2, 21 °C | kcat/Km | 333 M⁻¹ s⁻¹
CCCGCCCCGCACTAGGACCCCTGCAGATGATCAGGTCAAGTCAATCGGTCC (dsDNA; 5'-amino-C6 primer) | SPT15 full length assumed (Saccharomyces cerevisiae, UniProt P13393) | array | double-stranded DNA, one strand shown | TBP alone | Kd | 32.5 ± 11.1 nM
B4 | CCCCC/C=C\C[C@@H](O)/C=C/C=C/C=C\[C@@H](O)CCCC(=O)O | steady-state kinetics |  | pH 7.4, with: LTB4 | kcat/Km | 50 M⁻¹ s⁻¹
B5 (enzyme K234A) | Nc1ncnc2c1ncn2[C@@H]1O[C@H](COP(=O)(O)OP(=O)(O)OP(=O)(O)O)[C@@H](O)[C@H]1O | steady-state kinetics |  | pH 8.5, 25 °C, apparent, anoxic, with: L-Thr 10 mM | kcat/Km | 110 ± 30 M⁻¹ s⁻¹
enzyme (Acinetobacter baumannii, UniProt B7I618) | Nc1ncnc2c1ncn2[C@@H]1O[C@H](COP(=O)(O)OP(=O)(O)OP(=O)(O)O)[C@@H](O)[C@H]1O | steady-state kinetics |  | pH 7.4, 24 °C, apparent, per site | kcat/Km | 1260 M⁻¹ s⁻¹
B6 (SCO6712 S292F/Y229F) | CCn1c(=NN=c2sc3cc(S(=O)(=O)O)ccc3n2CC)sc2cc(S(=O)(=O)O)ccc21 | steady-state kinetics |  | pH 7, 37 °C, NaCl 150 mM, with: O2 cosubstrate | kcat/Km | 1900 ± 300 M⁻¹ s⁻¹
enzyme F30A (Homo sapiens, UniProt Q08623) | O=c1[nH]cc([C@@H]2O[C@H](COP(=O)(O)O)[C@@H](O)[C@H]2O)c(=O)[nH]1 | steady-state kinetics |  | pH 7, 25 °C | kcat/Km | 167000 M⁻¹ s⁻¹
enzyme (Pseudomonas aeruginosa, UniProt Q9HTP2) | N=C(N)NCCCC=O | steady-state kinetics |  | pH 8, 30 °C, per site | kcat/Km | 290000 ± 30000 M⁻¹ s⁻¹
B7 (enzyme) | N[C@@H](CO)C(=O)O | steady-state kinetics |  | pH 7.8, 22 °C, apparent | kcat/Km | 1950 M⁻¹ s⁻¹
enzyme (Acinetobacter baumannii, UniProt A0A5P1UDB1) | O=C(O)c1ccccc1O | steady-state kinetics |  | pH 7.5, 37 °C, apparent | kcat/Km | 319 M⁻¹ s⁻¹
gdh N192L (Bacillus subtilis) | NC(=O)c1ccc[n+]([C@@H]2O[C@H](COP(=O)(O)OP(=O)(O)OC[C@H]3O[C@@H](n4cnc5c(N)ncnc54)[C@H](O)[C@@H]3O)[C@@H](O)[C@H]2O)c1 | steady-state kinetics |  | pH 7, 40 °C | kcat/Km | 15800 ± 667 M⁻¹ s⁻¹
enzyme (Bordetella petrii, UniProt A9I5G2) | CSCC[C@@H](NC(C)=O)C(=O)O | steady-state kinetics |  | pH 7, 35 °C | kcat/Km | 272 ± 3.33 M⁻¹ s⁻¹
acsA I222V/L233M (Pseudomonas chlororaphis) | O=C(O)CCC(F)(F)F | steady-state kinetics |  | pH 7 | kcat/Km | 41.7 ± 8.33 M⁻¹ s⁻¹
PYCR2 (Homo sapiens, UniProt Q96C36) | NC(=O)C1=CN([C@@H]2O[C@H](COP(=O)(O)OP(=O)(O)OC[C@H]3O[C@@H](n4cnc5c(N)ncnc54)[C@H](O)[C@@H]3O)[C@@H](O)[C@H]2O)C=CC1 | steady-state kinetics |  | pH 7.5, 37 °C, apparent, cofactor varied, with: DL-P5C 5000 µM | kcat/Km | 161000 ± 44000 M⁻¹ s⁻¹
enzyme (UniProt F0RRL2) | OC[C@H]1O[C@@](CO)(O[C@H]2O[C@H](CO)[C@@H](O)[C@H](O)[C@H]2O)[C@@H](O)[C@@H]1O | steady-state kinetics |  | pH 5.5, 37 °C, apparent | kcat/Km | 1800 M⁻¹ s⁻¹

Some of these lines once more:
Molecule | target or system | assay | system | conditions | endpoint | value
enzyme (UniProt F0RRL2) | OC[C@H]1O[C@@](CO)(O[C@H]2O[C@H](CO)[C@@H](O)[C@H](O)[C@H]2O)[C@@H](O)[C@@H]1O | steady-state kinetics |  | pH 5.5, 37 °C, apparent | kcat/Km | 1800 M⁻¹ s⁻¹
B6 (SCO6712 S292F/Y229F) | CCn1c(=NN=c2sc3cc(S(=O)(=O)O)ccc3n2CC)sc2cc(S(=O)(=O)O)ccc21 | steady-state kinetics |  | pH 7, 37 °C, NaCl 150 mM, with: O2 cosubstrate | kcat/Km | 1900 ± 300 M⁻¹ s⁻¹
